# Results gathered from unrelated publications.
# Lines come from different studies, so protocols differ. Numbers after ± are the reported error.
Structure (SMILES),cell line,assay,setting,IC50
COc1ccnc(-c2cc(OC)ccn2)c1.[C-]#[O+].[C-]#[O+].[C-]#[O+].[Re+],MRC-5,cell viability,,6 ± 1.9 µM
N#Cc1ccc(NC(=O)c2cccnc2)cc1Cl,MRC5 lung fibroblasts,"cytotoxicity, LDH release",,> 30 µM
O=C(O)c1ccc([S][Au][PH](c2ccccc2)(c2ccccc2)[c-]2cccc2)cc1.[Fe+2].c1cc[cH-]c1,renal proximal tubule cells,"cytotoxicity, XTT",72 h,3.78 ± 0.13 µM
CCOC(=O)[C@@H]1Cc2c(cc([N+](=O)[O-])cc2[N+](=O)[O-])[C@H](O)[C@]12C(=O)Nc1ccc(Br)cc12,U-251,"cell growth or viability, MTT",24 h,5.8 µM
O=C(C[P+]([Au-][Cl])(c1ccccc1)c1ccccc1)[O][Ti+2][O]C(=O)C[P+]([Au-][Cl])(c1ccccc1)c1ccccc1.c1cc[cH-]c1.c1cc[cH-]c1,UO-31,"cell viability, XTT",72 h,1.4 µM
C[C@H]1C(OCCCCCC[P+](c2ccccc2)(c2ccccc2)c2ccccc2)O[C@@H]2O[C@@]3(C)CCC4[C@H](C)CCC1[C@]42OO3 (some centres unmarked),T24,"cell growth or viability, MTT",72 h,0.156 µM
O=C1CC2(C1)C(=O)[O][Pt]1([Cl])([O]C(=O)C(Cl)Cl)([NH][C@@H]3CCCC[C@H]3[NH]1)[O]C2=O,SGC-7901,"cell growth or viability, MTT",,16.8 µM
CC(=O)c1ccc2c(c1)N(CCCN(C)C)c1ccccc1S2,Vero 76,"cell growth or viability, neutral red",,37.8 µM
CCc1c2c(nc3ccc(O)cc13)-c1cc3c(c(=O)n1C2)COC(=O)[C@@]3(CC)OC(=O)CCC(=O)O,CT26,"cell growth or viability, MTT",48 h,0.376 µM
CCN(CC)C1=[S+][Au-]2([S]1)[c]1ccccc1-c1cccc[c]12,UWB1289,"cell growth or viability, MTT",72 h,31.6 µM
CC[C@H](C)[C@H](NC(=O)[C@H](CCCNC(=N)N)NC(=O)[C@H](CCCNC(=N)N)NC(=O)[C@H](CCCNC(=N)N)NC(=O)[C@@H](NC(=O)[C@@H](NC(=O)[C@H](C)NC(=O)[C@H](CCCNC(=N)N)NC(=O)[C@H](CCCNC(=N)N)NC(=O)[C@H](CCCNC(=N)N)NC(=O)[C@@H]1CCCN1C(=O)[C@@H](N)CCCNC(=N)N)[C@@H](C)O)[C@@H](C)O)C(=O)N[C@H](C(=O)N[C@H](C(=O)NCC(=O)N[C@H](C(=O)N[C@@H](CCCNC(=N)N)C(=O)N[C@@H](CCCNC(=N)N)C(=O)N[C@@H](CCCNC(=N)N)C(=O)N[C@@H](CCCNC(=N)N)C(N)=O)[C@@H](C)O)[C@@H](C)O)[C@@H](C)O,MCF-10A,"cell viability, CellTiter-Blue","24 h, serum-free medium",> 100 µM
CCOC(=O)[C@H]1Cc2c(cc([N+](=O)[O-])cc2[N+](=O)[O-])[C@H](O)[C@]12C(=O)Nc1ccccc12,U-87 MG,"cell growth or viability, MTT",24 h,64.7 µM
C[C@H]1O[C@@H](O[C@H]2[C@@H](O)C[C@H](O[C@H]3[C@@H](O)C[C@H](O[C@H]4CC[C@@]5(C)[C@H](CC[C@@H]6[C@@H]5C[C@@H](O)[C@]5(C)[C@@H](C7=CC(=O)OC7)[C@@H](O)C[C@]65O)C4)O[C@@H]3C)O[C@@H]2C)C[C@H](O)[C@@H]1O,BEAS-2B,"cell growth or viability, MTT",48 h,1.24 µM
CC(C)C[C@H](NC(=O)[C@H](CCCCN)NC(=O)[C@H](CC(C)C)NC(=O)[C@H](CC(C)C)NC(=O)[C@H](CCCCN)NC(=O)[C@H](CCCCN)NC(=O)[C@H](CC(C)C)NC(=O)[C@H](CC(C)C)NC(=O)[C@H](CCCCN)NC(=O)[C@H](CC(C)C)NC(=O)[C@H](CC(C)C)NC(=O)[C@H](CCCCN)NC(=O)[C@H](CCCCN)NC(=O)[C@H](CC(C)C)NC(=O)[C@@H](N)CSSC[C@H](N)C(=O)N[C@@H](CC(C)C)C(=O)N[C@@H](CCC(=O)O)C(=O)N[C@@H](Cc1c[nH]cn1)C(=O)N[C@@H](CC(C)C)C(=O)N[C@@H](CC(C)C)C(=O)N[C@@H](CCC(=O)O)C(=O)N[C@@H](Cc1c[nH]cn1)C(=O)N[C@@H](CC(C)C)C(=O)N[C@@H](CCC(=O)O)C(=O)N[C@@H](Cc1c[nH]cn1)C(=O)N[C@@H](CC(C)C)C(=O)N[C@@H](CC(C)C)C(=O)N[C@@H](CCC(=O)O)C(=O)N[C@@H](Cc1c[nH]cn1)C(N)=O)C(N)=O,4T1,"cell growth or viability, MTT",pH 6,14 µM
Cc1ccc(C(C)C)cc1.Cn1ccnc1CNCCNc1ccnc2cc(Cl)ccc12.[Cl-].[Cl][Ru+],CHO,"cytotoxicity, MTT",,> 160 µM
COc1cc(C=CC(=O)CC(=O)C=Cc2ccc(OC(=O)CCC(=O)OC3OC4OC5(C)CCC6C(C)CCC(C3C)C46OO5)c(OC)c2)ccc1OC(=O)CCC(=O)OC1OC2OC3(C)CCC4C(C)CCC(C1C)C24OO3 (centres unmarked),SK-MEL-24,"cell viability, MTT","24 h, without deferoxamine",2.54 ± 0.5 µM
CC(C)C[C@H](NC(=O)[C@H](CCCCN)NC(=O)[C@H](CC(C)C)NC(=O)[C@H](CC(C)C)NC(=O)[C@H](CCCCN)NC(=O)[C@H](CCCCN)NC(=O)[C@H](CC(C)C)NC(=O)[C@H](CC(C)C)NC(=O)[C@H](CCCCN)NC(=O)[C@H](CC(C)C)NC(=O)[C@H](CC(C)C)NC(=O)[C@H](CCCCN)NC(=O)[C@H](CCCCN)NC(=O)[C@H](CC(C)C)NC(=O)[C@@H](N)CSSC[C@H](N)C(=O)N[C@@H](CC(C)C)C(=O)N[C@@H](Cc1c[nH]cn1)C(=O)N[C@@H](CCC(=O)O)C(=O)N[C@@H](CC(C)C)C(=O)N[C@@H](CC(C)C)C(=O)N[C@@H](CCC(=O)O)C(=O)N[C@@H](Cc1c[nH]cn1)C(=O)N[C@@H](CC(C)C)C(=O)N[C@@H](Cc1c[nH]cn1)C(=O)N[C@@H](CCC(=O)O)C(=O)N[C@@H](CC(C)C)C(=O)N[C@@H](CC(C)C)C(=O)N[C@@H](CCC(=O)O)C(=O)N[C@@H](Cc1c[nH]cn1)C(N)=O)C(N)=O,4T1,"cell growth or viability, MTT",pH 7.4,> 100 µM
C[C@H]1[C@H](OC(=O)CCC(=O)OCCc2ccc(O)cc2)O[C@@H]2O[C@@]3(C)CC[C@H]4[C@H](C)CC[C@@H]1[C@@]24OO3,SK-MEL-24,"cell viability, MTT","24 h, together with: deferoxamine 20 µM, 1 h before",6 ± 1.5 µM
[Cl][Au].[Se]=c1n(C2CCCCC2)ccn1C1CCCCC1,HCT-15,"cell growth or viability, MTT",72 h,4.4 µM
COC(=O)C1CN1S(=O)(=O)c1ccccc1 (centres unmarked),HT-1080,"cell growth or viability, MTT",48 h,150 µM
CCC(C)C1OC(=O)C(NC(=O)c2cccc(NC=O)c2O)C(C)OC(=O)C(C(C)CC)OC(=O)C(C)(C)C(O)C(Cc2ccccc2)OC1=O (centres unmarked),SGC-7901,"cell growth or viability, CCK-8",72 h,2e-05 µM
CC[C@@]1(O)C(=O)OCc2c1cc1n(c2=O)Cc2c-1nc1cc(F)c(C)c3c1c2[C@@H](NC(=O)CCCN)CC3,MDA-MB-468,"cell growth or viability, ATP luminescence",5 days,0.0097 µM
O=C1[O][Pt]2([OH])([OH])([NH]C3CCCCC3[NH]2)[O]C1=O (centres unmarked),T24,"cell growth or viability, resazurin",72 h,> 100 µM

# For quick reference, copied from above:
Structure (SMILES),cell line,assay,setting,IC50
O=C(O)c1ccc([S][Au][PH](c2ccccc2)(c2ccccc2)[c-]2cccc2)cc1.[Fe+2].c1cc[cH-]c1,renal proximal tubule cells,"cytotoxicity, XTT",72 h,3.78 ± 0.13 µM
CCC(C)C1OC(=O)C(NC(=O)c2cccc(NC=O)c2O)C(C)OC(=O)C(C(C)CC)OC(=O)C(C)(C)C(O)C(Cc2ccccc2)OC1=O (centres unmarked),SGC-7901,"cell growth or viability, CCK-8",72 h,2e-05 µM
N#Cc1ccc(NC(=O)c2cccnc2)cc1Cl,MRC5 lung fibroblasts,"cytotoxicity, LDH release",,> 30 µM
